Measurements of several laboratories.
Every numbered part comes from another study and shows a few of its results, in no order.
Chain of UniProt P54764 (whole entry, looked up): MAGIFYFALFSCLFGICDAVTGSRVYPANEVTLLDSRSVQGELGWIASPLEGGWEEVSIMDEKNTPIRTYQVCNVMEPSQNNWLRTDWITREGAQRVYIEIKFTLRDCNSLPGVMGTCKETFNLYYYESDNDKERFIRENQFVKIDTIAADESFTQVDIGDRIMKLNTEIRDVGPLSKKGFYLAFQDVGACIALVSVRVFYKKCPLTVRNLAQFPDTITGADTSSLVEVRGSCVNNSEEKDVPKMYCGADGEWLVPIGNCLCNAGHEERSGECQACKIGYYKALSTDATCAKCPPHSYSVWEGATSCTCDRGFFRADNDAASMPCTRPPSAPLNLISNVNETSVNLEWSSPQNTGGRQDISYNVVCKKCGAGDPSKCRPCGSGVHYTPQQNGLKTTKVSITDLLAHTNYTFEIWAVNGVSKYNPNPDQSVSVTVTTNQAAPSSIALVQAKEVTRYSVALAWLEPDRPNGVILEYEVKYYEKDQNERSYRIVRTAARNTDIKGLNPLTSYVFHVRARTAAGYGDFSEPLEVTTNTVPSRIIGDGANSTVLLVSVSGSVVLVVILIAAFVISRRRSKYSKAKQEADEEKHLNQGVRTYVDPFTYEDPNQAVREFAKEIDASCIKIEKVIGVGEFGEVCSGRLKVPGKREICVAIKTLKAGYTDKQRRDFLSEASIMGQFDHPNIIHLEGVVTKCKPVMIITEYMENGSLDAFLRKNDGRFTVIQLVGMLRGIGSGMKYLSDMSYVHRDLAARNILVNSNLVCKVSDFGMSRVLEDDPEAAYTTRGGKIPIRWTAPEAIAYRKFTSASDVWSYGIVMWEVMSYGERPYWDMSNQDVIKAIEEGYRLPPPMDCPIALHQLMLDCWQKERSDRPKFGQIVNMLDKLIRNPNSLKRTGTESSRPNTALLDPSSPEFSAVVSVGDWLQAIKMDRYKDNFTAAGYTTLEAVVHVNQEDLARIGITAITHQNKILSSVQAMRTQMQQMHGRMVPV
Chain of UniProt Q9Y6M4 (whole entry, looked up): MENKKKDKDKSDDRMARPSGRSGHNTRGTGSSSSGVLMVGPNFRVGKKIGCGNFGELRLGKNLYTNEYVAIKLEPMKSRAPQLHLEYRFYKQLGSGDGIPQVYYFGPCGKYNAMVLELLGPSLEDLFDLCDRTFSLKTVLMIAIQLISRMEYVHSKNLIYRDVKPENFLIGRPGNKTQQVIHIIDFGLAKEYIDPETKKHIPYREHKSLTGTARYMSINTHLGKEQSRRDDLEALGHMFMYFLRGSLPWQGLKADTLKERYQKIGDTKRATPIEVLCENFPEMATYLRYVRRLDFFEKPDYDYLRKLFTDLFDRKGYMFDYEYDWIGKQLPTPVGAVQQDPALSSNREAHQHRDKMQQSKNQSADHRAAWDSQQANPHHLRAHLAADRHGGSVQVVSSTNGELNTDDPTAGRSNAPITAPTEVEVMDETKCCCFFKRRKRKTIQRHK
Chain of UniProt Q5S007 (whole entry, looked up): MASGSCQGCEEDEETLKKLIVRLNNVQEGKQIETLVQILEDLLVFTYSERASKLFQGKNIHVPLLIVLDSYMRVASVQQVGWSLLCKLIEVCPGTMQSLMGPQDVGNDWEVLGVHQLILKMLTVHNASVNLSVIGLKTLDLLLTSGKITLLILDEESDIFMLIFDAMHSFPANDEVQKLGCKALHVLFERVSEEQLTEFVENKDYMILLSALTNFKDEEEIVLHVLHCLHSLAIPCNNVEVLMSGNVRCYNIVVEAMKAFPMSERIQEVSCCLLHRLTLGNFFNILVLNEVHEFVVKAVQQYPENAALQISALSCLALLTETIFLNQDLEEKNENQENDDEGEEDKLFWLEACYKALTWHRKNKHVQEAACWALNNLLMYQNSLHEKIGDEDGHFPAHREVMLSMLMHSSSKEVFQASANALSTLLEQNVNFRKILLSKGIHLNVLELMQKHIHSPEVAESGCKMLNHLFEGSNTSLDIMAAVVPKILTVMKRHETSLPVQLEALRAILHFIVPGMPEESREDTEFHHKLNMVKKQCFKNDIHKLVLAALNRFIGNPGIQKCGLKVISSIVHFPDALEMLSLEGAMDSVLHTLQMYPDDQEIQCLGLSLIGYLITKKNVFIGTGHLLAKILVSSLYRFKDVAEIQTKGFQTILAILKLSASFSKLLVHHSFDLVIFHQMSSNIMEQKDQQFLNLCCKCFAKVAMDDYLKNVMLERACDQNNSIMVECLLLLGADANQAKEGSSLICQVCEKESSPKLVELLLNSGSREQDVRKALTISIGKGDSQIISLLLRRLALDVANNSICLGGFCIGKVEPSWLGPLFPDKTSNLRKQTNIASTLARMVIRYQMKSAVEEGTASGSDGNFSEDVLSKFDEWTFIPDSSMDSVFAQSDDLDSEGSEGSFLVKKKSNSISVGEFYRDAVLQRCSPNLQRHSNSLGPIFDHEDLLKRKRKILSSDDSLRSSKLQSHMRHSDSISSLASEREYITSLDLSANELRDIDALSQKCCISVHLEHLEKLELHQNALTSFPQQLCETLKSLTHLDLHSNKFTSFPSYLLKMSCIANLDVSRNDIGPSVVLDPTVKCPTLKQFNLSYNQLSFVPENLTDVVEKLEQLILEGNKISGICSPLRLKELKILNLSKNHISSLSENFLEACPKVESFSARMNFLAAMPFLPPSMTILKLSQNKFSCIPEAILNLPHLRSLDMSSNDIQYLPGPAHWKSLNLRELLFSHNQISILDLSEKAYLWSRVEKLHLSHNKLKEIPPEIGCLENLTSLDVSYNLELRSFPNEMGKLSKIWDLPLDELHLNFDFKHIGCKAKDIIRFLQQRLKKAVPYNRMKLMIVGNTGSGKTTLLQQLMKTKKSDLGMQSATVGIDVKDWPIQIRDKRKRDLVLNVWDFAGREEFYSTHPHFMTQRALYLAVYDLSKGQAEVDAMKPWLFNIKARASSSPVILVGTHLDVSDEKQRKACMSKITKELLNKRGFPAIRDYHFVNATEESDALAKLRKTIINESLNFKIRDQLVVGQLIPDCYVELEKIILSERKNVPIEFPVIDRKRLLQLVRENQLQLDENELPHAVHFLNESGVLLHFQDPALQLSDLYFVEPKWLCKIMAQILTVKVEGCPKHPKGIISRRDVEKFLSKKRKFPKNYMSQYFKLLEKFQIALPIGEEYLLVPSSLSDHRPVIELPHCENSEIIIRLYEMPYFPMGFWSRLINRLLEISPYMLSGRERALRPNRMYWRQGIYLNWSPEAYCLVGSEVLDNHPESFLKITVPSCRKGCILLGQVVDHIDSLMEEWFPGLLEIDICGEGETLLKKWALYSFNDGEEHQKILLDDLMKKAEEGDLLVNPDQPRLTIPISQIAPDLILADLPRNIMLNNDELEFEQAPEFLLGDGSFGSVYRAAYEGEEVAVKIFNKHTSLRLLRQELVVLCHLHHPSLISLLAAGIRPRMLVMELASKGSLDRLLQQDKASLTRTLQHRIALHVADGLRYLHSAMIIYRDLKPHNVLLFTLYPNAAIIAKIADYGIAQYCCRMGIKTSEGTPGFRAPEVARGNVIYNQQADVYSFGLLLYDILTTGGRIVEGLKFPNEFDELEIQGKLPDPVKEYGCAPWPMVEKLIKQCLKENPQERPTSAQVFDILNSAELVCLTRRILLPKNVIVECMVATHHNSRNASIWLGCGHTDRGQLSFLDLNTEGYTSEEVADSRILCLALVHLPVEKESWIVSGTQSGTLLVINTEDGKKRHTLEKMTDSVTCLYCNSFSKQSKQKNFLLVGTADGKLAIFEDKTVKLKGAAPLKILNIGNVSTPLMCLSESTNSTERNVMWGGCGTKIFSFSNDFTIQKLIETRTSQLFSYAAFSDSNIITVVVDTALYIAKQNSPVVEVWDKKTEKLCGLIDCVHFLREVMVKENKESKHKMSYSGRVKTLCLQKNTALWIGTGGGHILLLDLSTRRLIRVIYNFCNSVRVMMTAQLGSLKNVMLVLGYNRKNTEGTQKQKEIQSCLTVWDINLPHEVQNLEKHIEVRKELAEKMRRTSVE

Block 1
Host: mouse
Sample: microsomes or S9
Tested at: 2 µM
Time: 0.5 h
| SMILES | remaining compound |
| --- | --- |
| CCOC(=O)N1CCN(C2CCCc3sccc32)CC1 (stereo not shown) | < 1% |
| CCCN(CCC)c1nc(N)nc(-c2noc(C)n2)n1 | 5.62% |
| CN(C)c1ccc2c(c1)C(c1ccccc1)CC2=O (stereo not shown) | 1.46% |
| CC(C)(C)n1cc(/C=C/c2ncc(Br)s2)nn1 | 94.9% |
| Cc1c(Br)c(-c2nc3c4ccccc4ncn3n2)nn1C | 0.252% |
| COc1cc(=O)n2c(c1C(=O)NC1CCCCCC1)CCCC2 | 31.4% |
| CC(C)(C)c1nnc2ccc(NC3CCCc4cn(C5CCCC5)nc43)nn12 (stereo not shown) | 25.4% |
| CCOC(=O)c1c(C)c(CCC(=O)NCCN2CCCCC2)n(C)c1C | 32.6% |
| Cc1cc(C#N)cc(C(=O)c2c(C(C)C)c(=O)[nH]c(=O)n2Cc2cc(F)nc(OCCOCc3ccccc3)c2)c1 | 1.25% |
| CCn1nc(C)c(CNc2nc(N)nc3nc[nH]c23)n1 | 94.9% |
| Cc1cc(N(C)Cc2ncc(Br)cn2)n2nc(C)nc2n1 | > 100% |
| O=C(c1ccccc1)N1CC(c2nc(-c3cccnc3)no2)C2(CCOCC2)C1 (stereo not shown) | 19.7% |
| COc1ccc(-c2nc(-c3ccc(OC)cc3)c(-c3ccc(OC)cc3)s2)cc1 | 93.1% |
| N#Cc1c(NC(=O)c2n[nH]c(-n3cnnc3)n2)sc2c1CCCC2 | > 100% |
| C(=C\c1ccccc1)/CN1CCN(c2cnc3ccccc3n2)CC1 | 40.3% |
| COC(=O)Cc1cc(=O)n2nc(C)c(-c3ccc(F)cc3)c2[nH]1 | 0.643% |
| Cc1ccc(S(=O)(=O)c2c(-c3ccccc3)n(C#Cc3ccccc3)c3ccccc23)cc1 | 24.4% |
| NC(N)=NC(=O)c1coc(-c2cc(F)cc(F)c2)c1 | 74.6% |
| COC(=O)CC1C(=O)NCCN1S(=O)(=O)c1ccc(F)c(Cl)c1 (stereo not shown) | 54.5% |
| O=C(c1ccc2ncccc2c1)c1cncc(Br)c1Cl | 0% |

Block 2
Sample: hydrocarbon/water
pH: 7.4
| Compound | logD |
| --- | --- |
| CCC[C@H]1NC(=O)[C@H](CC(C)C)NC(=O)[C@H](Cc2ccccc2)NC(=O)[C@H]2CCCN2C(=O)[C@H](CC2CCCCC2)NC(=O)[C@H](CC2CCCCC2)NC1=O | 3 |
| CC(C)C[C@@H]1NC(=O)CN(Cc2ccc3c(c2)OCO3)C(=O)[C@H](C)NC(=O)[C@H](CC(C)C)N(C)C(=O)[C@H]2CCCN2C(=O)[C@H](Cc2ccccc2)NC(=O)CN(CC2CCOCC2)C(=O)[C@H](C)NC(=O)[C@H](CC(C)C)N(C)C(=O)[C@H]2CCCN2C1=O | 1.64 |
| CCCN1CC(=O)N[C@@H](CC(C)C)C(=O)N(C)[C@@H](C)C(=O)N[C@@H](CC(C)C)C(=O)N(C)Cc2cn(nn2)CC(=O)N[C@@H](CC(C)C)C(=O)N(C)[C@@H](C)C(=O)N[C@@H](CC(C)C)C(=O)N2CCC[C@@H]2C1=O | 0.145 |
| CCN1CC(=O)N[C@@H](CC(C)C)C(=O)N2CCC[C@@H]2C(=O)N(C)[C@@H](CC(C)C)C(=O)N[C@@H](C)C(=O)N(CC2CCOCC2)CC(=O)N[C@@H](C)C(=O)N2CCC[C@@H]2C(=O)N(C)[C@@H](CC(C)C)C(=O)N[C@@H](C)C1=O | -0.892 |
| CCCN1CC(=O)N[C@@H](CC)C(=O)N(C)[C@@H](C)C(=O)N[C@@H](CC(C)C)C(=O)N(C)Cc2cn(nn2)CC(=O)N[C@@H](CC(C)C)C(=O)N(C)[C@@H](C)C(=O)N[C@@H](CC(C)C)C(=O)N2CCC[C@@H]2C1=O | -0.908 |
| CC(C)C[C@@H]1NC(=O)[C@H](Cc2ccc(O)cc2)NC(=O)[C@H]2CCCN2C(=O)[C@H](CC2CCCCC2)NC(=O)[C@H](CC2CCCCC2)NC(=O)[C@@H](CC(C)C)NC1=O | 1.16 |
| CC(C)C[C@@H]1NC(=O)[C@H](C)N(C)C(=O)[C@H](CC2CCCCC2)NC(=O)[C@H](C)N(C)C(=O)[C@H]2CCCN2C(=O)[C@H](CC2CCCCC2)NC(=O)CN(CC(C)C)C(=O)[C@H](C2CCCCC2)NC(=O)Cn2cc(nn2)CN(C)C1=O | 2.66 |
| CCCCCN1CC(=O)N[C@@H](C)C(=O)N2CCC[C@@H]2C(=O)N(C)[C@@H](CC(C)C)C(=O)N[C@@H](C)C(=O)N(CC)CC(=O)N[C@@H](CC(C)C)C(=O)N2CCC[C@@H]2C(=O)N(C)[C@@H](CC(C)C)C(=O)N[C@@H](C)C1=O | 1 |
| CCCN1CC(=O)N[C@@H](C2CCCCC2)C(=O)N2CCC[C@@H]2C(=O)N(C)[C@@H](C)C(=O)N[C@@H](CC2CCCCC2)C(=O)N(C)[C@@H](C)C(=O)N[C@@H](CC(C)C)C(=O)N(C)Cc2cn(nn2)CC(=O)N[C@@H](CC(C)C)C1=O | 1.29 |
| CC(C)C[C@@H]1NC(=O)[C@H](Cc2ccc(O)cc2)NC(=O)[C@H]2CCCN2C(=O)[C@H](CC2CCCCC2)NC(=O)[C@H](CC2CCCCC2)NC(=O)[C@@H](C)NC1=O | 0.0833 |
| CC[C@H]1C(=O)N[C@@H](CC(C)C)C(=O)N2CCC[C@@H]2C(=O)N(C)[C@@H](Cc2ccc(O)cc2)C(=O)N[C@@H](CC(C)C)C(=O)N(C)[C@H](C)C(=O)N1C | -0.417 |

Block 3
Compound: O=C1CCc2cc(Nc3cc(OC4CCOCC4)c([N+](=O)[O-])cc3Cl)ccc2N1
Observed: cell-free assay
Technique: competition with immobilised ligand
Tested at: 1 µM
| target | remaining binding |
| --- | --- |
| TLK2 (Homo sapiens, UniProt Q86UE8) | 81% |
| eIF-2-alpha kinase GCN2, C-terminal kinase domain (EIF2AK4, Homo sapiens, UniProt Q9P2K8, S808G) | 85% |
| PRKAA1 (Homo sapiens, UniProt Q13131) | 100% |
| PIK3CA (Homo sapiens, UniProt P42336, M1043I) | 94% |
| STK32B (Homo sapiens, UniProt Q9NY57) | 88% |
| NTRK3 (Homo sapiens, UniProt Q16288) | 100% |
| MAPK1 (Homo sapiens, UniProt P28482) | 99% |
| MAP3K20 (Homo sapiens, UniProt Q9NYL2) | 81% |
| IKBKB (Homo sapiens, UniProt O14920) | 100% |
| EPHA4 (Homo sapiens, UniProt P54764) | 84% |
| PRKCE (Homo sapiens, UniProt Q02156) | 93% |
| RIOK1 (Homo sapiens, UniProt Q9BRS2) | 100% |
| BRSK2 (Homo sapiens, UniProt Q8IWQ3) | 100% |
| PRKCQ (Homo sapiens, UniProt Q04759) | 92% |
| EIF2AK1 (Homo sapiens, UniProt Q9BQI3) | 100% |
| LRRK2 (Homo sapiens, UniProt Q5S007) | 72% |
| CDKL3 (Homo sapiens, UniProt Q8IVW4) | 79% |
| DCLK1 (Homo sapiens, UniProt O15075) | 95% |
| COQ8A (Homo sapiens, UniProt Q8NI60) | 100% |
| CSNK1G3 (Homo sapiens, UniProt Q9Y6M4) | 67% |
| MARK1 (Homo sapiens, UniProt Q9P0L2) | 99% |
| Tyrosine-protein kinase ABL1, phosphorylated (ABL1, Homo sapiens, UniProt P00519, H396P) | 85% |

Block 4
Target: Mitogen-activated protein kinase kinase kinase 11 (MAP3K11, Homo sapiens, UniProt Q16584)
Chain of UniProt Q16584 (whole entry, looked up): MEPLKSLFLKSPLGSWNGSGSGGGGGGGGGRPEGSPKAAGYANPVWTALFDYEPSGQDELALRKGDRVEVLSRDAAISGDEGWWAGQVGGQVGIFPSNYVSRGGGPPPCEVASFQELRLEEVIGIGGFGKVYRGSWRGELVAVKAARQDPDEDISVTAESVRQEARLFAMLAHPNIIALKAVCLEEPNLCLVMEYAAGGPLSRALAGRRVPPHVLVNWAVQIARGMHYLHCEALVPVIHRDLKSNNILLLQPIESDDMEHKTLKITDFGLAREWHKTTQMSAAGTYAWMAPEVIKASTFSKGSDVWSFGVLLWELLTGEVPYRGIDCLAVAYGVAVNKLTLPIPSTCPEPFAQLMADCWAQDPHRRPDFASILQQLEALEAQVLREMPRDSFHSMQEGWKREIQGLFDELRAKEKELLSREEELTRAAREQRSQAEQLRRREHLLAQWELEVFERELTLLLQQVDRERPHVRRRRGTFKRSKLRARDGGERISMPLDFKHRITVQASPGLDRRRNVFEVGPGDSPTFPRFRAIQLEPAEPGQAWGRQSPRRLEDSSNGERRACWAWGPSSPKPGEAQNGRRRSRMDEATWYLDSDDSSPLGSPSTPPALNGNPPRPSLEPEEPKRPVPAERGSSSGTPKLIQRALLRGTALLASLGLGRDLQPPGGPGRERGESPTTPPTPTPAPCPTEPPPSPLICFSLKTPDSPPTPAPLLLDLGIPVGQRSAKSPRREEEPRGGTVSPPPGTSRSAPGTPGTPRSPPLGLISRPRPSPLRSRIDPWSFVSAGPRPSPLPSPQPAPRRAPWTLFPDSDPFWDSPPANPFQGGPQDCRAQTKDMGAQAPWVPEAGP
Observed: enzyme activity
Action: inhibitor
Tested at: 0.5 µM
Relative to: control
| SMILES | remaining activity [%] |
| --- | --- |
| COc1ccc(S(=O)(=O)N(CCO)c2ccccc2CN(C)CC=Cc2ccc(Cl)cc2)cc1 | 99.3 |
| CC[n+]1c(/C=C/N(C)c2ccccc2)n(-c2ccccc2)c2ccc(-c3nc4ccccc4s3)cc21 | 102 |
| Nc1nccc(-c2c(-c3ccc(F)cc3)ncn2C2CCNCC2)n1 | 96.3 |
| N#CC(=C(N)Sc1ccc(N)cc1)c1ccccc1C(F)(F)F | 99.9 |
| Fc1ccc(-c2nc3n(c2-c2ccncc2)CCS3)cc1 | 95.7 |
| Oc1ccc(Nc2nc(-c3ccc(Cl)cc3)cs2)cc1 | 95.3 |
| Cc1cncc2cccc(S(=O)(=O)N3CCCN(C(=O)CN)C[C@@H]3C)c12 | 98.4 |
| CSc1nc(-c2ccnc(N[C@@H](C)c3ccccc3)c2)c(-c2ccc(F)cc2)[nH]1 (racemic) | 101 |
| CCCC(=O)Oc1ccc2[nH]c(C(=O)c3cc4ccccc4[nH]3)cc2c1 | 98.7 |
| NC(=O)c1ccc(N(C(N)=O)c2c(F)cccc2F)nc1-c1ccc(F)cc1F | 105 |
| CC(=O)c1ccc(N2CCOCC2)cc1O | 94.8 |
| Cc1cc(Nc2nc(-c3ccccc3)nc3ccccc23)n[nH]1 | 18.1 |
| CCc1[nH]c(-c2ccc(OC)cc2)nc1-c1ccncc1 | 96.7 |
| Nc1nc(Nc2ccc(S(N)(=O)=O)cc2)nn1C(=O)c1c(F)cccc1F | 47.2 |
| Nc1ncnc2c1cnn2-c1ccccc1 | 96 |
| CC#CC(=O)Nc1cc2c(Nc3ccc(F)c(Cl)c3)ncnc2cn1 | 99.3 |
| COc1cc(Nc2c(C#N)cnc3cc(OCCCN4CCN(C)CC4)c(OC)cc23)c(Cl)cc1Cl | 13.5 |
| Cc1ccc(NC2=CC(=O)c3sc(C)nc3C2=O)cc1 | 101 |
| O=C1NC(=O)C(c2c[nH]c3ccccc23)=C1c1c[nH]c2ccccc12 | 68.7 |
| O=C1Cc2c([nH]c3ccc([N+](=O)[O-])cc23)-c2ccccc2N1 | 11.8 |
